Experimental data gathered from unrelated publications.
A part holds a random share of what one study measured.
UniProt P14616, sequence (whole entry, looked up): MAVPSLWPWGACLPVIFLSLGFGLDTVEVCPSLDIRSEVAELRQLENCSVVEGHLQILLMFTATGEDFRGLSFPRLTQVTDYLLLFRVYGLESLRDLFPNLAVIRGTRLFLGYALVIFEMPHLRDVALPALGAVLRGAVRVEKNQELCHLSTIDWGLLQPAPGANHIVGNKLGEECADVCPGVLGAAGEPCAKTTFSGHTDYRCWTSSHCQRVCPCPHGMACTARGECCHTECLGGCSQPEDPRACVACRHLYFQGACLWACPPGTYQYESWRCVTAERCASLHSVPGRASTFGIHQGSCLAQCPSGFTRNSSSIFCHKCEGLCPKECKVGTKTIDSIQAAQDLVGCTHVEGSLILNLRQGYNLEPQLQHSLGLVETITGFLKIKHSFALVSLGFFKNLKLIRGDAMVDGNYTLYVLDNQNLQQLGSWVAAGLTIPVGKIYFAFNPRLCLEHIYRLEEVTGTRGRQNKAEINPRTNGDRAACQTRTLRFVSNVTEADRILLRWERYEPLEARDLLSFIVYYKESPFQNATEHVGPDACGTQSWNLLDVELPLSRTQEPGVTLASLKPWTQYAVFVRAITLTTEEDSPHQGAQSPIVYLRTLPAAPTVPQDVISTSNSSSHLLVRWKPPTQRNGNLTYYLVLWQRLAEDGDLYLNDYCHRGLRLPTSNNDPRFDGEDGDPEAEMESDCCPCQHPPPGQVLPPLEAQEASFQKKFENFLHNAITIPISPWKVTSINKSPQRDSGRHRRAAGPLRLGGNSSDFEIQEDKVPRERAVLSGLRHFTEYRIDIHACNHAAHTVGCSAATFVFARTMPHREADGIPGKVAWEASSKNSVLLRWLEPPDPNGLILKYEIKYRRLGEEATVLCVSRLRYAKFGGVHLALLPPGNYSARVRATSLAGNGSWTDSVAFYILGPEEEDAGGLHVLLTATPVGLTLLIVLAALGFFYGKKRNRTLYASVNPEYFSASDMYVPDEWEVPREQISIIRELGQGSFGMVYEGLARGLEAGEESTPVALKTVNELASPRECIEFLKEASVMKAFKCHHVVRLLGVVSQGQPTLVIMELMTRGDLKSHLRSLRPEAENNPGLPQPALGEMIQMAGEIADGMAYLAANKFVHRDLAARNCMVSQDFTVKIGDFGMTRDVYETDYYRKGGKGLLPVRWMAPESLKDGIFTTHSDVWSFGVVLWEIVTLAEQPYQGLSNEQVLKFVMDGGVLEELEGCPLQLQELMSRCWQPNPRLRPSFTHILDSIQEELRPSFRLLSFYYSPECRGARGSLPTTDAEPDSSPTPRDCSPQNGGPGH
UniProt Q13131, sequence (whole entry, looked up): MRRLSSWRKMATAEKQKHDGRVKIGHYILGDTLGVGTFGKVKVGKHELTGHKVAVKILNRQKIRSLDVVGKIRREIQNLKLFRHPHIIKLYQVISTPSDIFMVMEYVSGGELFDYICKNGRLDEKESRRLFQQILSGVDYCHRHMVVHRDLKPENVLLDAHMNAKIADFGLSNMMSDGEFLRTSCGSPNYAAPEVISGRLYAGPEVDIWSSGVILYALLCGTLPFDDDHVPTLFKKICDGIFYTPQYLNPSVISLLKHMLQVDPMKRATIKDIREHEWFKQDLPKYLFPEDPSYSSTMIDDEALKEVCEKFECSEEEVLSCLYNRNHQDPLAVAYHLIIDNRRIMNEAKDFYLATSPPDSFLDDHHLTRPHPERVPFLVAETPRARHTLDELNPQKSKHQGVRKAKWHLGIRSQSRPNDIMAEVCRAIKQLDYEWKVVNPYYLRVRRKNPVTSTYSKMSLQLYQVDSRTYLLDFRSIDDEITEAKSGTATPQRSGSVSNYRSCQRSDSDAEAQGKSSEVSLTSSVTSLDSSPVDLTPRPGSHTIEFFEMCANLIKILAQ
UniProt P68400, sequence (whole entry, looked up): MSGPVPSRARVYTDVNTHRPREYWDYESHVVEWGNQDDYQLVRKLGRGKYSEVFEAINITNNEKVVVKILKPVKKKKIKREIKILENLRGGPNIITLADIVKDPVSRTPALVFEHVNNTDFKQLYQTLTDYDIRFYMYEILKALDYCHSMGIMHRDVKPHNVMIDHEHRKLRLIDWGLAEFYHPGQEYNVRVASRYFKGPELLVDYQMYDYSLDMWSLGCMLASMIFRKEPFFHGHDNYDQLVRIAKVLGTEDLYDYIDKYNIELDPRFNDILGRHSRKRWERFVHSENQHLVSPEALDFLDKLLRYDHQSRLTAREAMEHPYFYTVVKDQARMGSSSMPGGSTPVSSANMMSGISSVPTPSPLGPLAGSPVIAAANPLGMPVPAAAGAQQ
UniProt P32298, sequence (whole entry, looked up): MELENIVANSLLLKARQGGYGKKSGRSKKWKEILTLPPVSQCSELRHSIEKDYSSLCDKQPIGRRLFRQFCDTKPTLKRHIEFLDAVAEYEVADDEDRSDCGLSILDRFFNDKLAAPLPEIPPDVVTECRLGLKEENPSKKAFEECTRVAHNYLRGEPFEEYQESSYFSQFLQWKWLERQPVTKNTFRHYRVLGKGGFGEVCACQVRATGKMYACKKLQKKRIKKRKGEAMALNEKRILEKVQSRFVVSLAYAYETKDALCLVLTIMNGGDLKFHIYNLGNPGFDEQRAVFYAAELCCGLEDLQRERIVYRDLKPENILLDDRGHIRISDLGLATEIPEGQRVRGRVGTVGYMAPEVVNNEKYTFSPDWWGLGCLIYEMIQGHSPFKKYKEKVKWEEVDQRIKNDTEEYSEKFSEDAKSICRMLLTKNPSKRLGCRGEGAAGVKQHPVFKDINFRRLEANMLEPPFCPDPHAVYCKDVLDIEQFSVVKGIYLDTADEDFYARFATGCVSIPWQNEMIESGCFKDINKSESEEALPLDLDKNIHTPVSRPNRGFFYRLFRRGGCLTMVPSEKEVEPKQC
UniProt P49137, sequence (whole entry, looked up): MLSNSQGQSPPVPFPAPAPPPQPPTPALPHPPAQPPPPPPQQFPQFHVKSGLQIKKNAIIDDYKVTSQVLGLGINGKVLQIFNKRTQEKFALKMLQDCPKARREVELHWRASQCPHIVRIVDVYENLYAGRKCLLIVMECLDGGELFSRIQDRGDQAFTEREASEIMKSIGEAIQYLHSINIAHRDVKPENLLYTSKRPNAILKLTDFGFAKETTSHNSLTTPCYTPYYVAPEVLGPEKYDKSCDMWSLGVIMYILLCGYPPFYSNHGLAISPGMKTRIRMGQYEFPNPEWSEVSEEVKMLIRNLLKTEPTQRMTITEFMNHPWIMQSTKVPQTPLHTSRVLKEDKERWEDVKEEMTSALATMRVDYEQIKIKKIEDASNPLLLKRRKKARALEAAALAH
UniProt O15146, sequence (whole entry, looked up): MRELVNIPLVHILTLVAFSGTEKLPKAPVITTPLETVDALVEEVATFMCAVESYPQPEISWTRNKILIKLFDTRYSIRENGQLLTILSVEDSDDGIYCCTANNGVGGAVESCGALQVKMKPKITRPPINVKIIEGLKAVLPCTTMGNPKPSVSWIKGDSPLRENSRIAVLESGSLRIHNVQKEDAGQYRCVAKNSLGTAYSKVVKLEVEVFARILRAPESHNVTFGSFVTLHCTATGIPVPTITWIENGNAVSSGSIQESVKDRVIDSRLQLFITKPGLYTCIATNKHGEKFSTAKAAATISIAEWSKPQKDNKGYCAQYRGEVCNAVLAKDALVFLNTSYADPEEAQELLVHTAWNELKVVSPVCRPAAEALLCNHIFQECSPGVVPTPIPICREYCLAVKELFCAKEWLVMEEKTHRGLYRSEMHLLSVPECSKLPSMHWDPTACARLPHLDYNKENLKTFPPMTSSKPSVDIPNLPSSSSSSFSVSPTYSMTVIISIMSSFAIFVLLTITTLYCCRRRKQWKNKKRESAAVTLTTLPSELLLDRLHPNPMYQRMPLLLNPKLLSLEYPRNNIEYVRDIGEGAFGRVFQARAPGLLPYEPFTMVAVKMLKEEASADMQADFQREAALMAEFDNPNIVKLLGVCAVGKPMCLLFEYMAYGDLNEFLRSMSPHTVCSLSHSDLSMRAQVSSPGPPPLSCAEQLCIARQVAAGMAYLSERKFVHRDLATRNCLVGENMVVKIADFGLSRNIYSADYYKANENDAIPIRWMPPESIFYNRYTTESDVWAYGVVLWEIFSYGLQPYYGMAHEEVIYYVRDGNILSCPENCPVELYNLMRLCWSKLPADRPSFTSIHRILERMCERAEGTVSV

Set 1
SMILES: [2H]c1c([2H])c([C@]2([2H])CCCN2C(=O)C(C)(C)Oc2ccc3cn[nH]c3c2)c([2H])c([2H])c1C([2H])([2H])[2H]
Observed: binding
Technique: competition with immobilised ligand
Tested at: 1 µM
| target | remaining binding |
| --- | --- |
| GRK4 (Homo sapiens, UniProt P32298) | 62% |
| MTOR (Homo sapiens, UniProt P42345) | 95% |
| MUSK (Homo sapiens, UniProt O15146) | 67% |
| INSRR (Homo sapiens, UniProt P14616) | 75% |
| MAPKAPK2 (Homo sapiens, UniProt P49137) | 82% |
| CSNK2A1 (Homo sapiens, UniProt P68400) | 76% |
| PRKAA1 (Homo sapiens, UniProt Q13131) | 76% |

Single results of other studies
CA9: Carbonic anhydrase 9 (CA9, Homo sapiens, UniProt Q16790)
FGFR4: Fibroblast growth factor receptor 4 (FGFR4, Homo sapiens, UniProt P22455)
UniProt P22455, sequence (whole entry, looked up): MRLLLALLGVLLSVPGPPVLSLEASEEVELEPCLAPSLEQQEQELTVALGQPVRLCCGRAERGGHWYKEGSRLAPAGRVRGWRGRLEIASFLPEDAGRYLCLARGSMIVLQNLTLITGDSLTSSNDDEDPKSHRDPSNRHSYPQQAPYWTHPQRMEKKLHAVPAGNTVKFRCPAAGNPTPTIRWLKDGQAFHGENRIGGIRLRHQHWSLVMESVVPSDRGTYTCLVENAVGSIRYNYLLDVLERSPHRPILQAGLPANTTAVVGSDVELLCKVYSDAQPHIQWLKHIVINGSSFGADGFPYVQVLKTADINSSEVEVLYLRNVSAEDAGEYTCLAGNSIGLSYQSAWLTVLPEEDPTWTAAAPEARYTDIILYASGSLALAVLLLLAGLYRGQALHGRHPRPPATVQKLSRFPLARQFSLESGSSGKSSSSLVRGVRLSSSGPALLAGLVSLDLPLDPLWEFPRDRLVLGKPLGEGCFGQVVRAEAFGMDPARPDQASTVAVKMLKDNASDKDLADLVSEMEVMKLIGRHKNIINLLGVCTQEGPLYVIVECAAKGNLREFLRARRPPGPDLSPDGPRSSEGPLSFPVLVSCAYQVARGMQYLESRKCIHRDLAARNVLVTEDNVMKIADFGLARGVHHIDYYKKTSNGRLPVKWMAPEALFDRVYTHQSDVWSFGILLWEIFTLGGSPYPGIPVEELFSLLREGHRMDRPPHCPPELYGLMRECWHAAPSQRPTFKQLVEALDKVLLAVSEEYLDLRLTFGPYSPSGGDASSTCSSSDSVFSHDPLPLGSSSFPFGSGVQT
| SMILES | target | observed | action | technique | tested at | endpoint | value |
| --- | --- | --- | --- | --- | --- | --- | --- |
| C1=C/COCc2cc(ccc2OCCN2CCCC2)Nc2nccc(n2)-c2cccc(c2)COC/1 | FLT3 (Homo sapiens, UniProt P36888, D835V/ITD) | cell-free assay |  |  | 0.1 µM | remaining signal | 0.2% |
| CC(NCC1(c2cccc(-c3cn(C)nn3)c2)CCOCC1)C(=O)Nc1ccc(S(N)(=O)=O)cc1 (centres unmarked) | CA9 | enzyme activity | inhibitor |  |  | IC50 | 117 nM |
| CNc1ncc2c(/C=C/C(=O)N3CCC(OC)CC3)nn(Cc3cccc(C(F)(F)F)c3)c2n1 | FGFR4 | enzyme activity | inhibitor | radiometric | 1 µM | remaining activity | 91% |
| COc1cc(-c2cncc3c2CN(C)Cc2cc(N4CCNCC4)ccc2-3)cc(OC)c1OC | SRC (Homo sapiens, UniProt P12931) | enzyme activity | inhibitor |  | 1 µM | remaining activity | 94% |
| CCCCC(=O)Nc1ccc(-c2ccc3ncn(CCC)c(=O)c3c2)cn1 | SBK3 (Homo sapiens, UniProt P0C264) | binding |  | competition with immobilised ligand | 0.5 µM | remaining binding | 100% |
| NS(=O)(=O)c1ccc(N2CCOCC2)c(C(=O)Nc2ccc(NC(=O)c3cccs3)cc2)c1 | CA9 | enzyme activity | inhibitor |  |  | IC50 | 40.7 nM |
| C=CC(=O)N1CCC(COCC(=O)N2CCN(c3nc(-c4cnc(N)nc4C(F)F)nc(N4CCOC[C@@H]4C)n3)CC2)CC1 | FGFR4 | binding |  | competition with immobilised ligand | 1 µM | remaining binding | 97% |

Excerpt of the above (set 1):
| target | remaining binding |
| --- | --- |
| MUSK (Homo sapiens, UniProt O15146) | 67% |
